Measurements of several laboratories.
A part holds a random share of what one study measured.

Study 1
Organism: Saccharomyces cerevisiae
Effect on: binding
Method: competitive growth deep sequencing
Molecule type: peptide
Strain: cyclin D3-Cln2 fusion strain
Tested at: concentration not given
Notes: peptide tiling library
Reading: direction not given
Molecule	growth enrichment score
NSMKELNFSHLPSNSV	-0.146
TTTTSPRTPPPLTVQD	0.666
KRNLLNEFDRII	-0.227
SPPRGRRLFPPGPAGF	-0.688
SMTDFYHSKRRLIFSK	-1.34
RRRIKLPESDSSED	0.353
NEGVSNAVRRSLYIRD	-1.18
LKGRRLVFDN	0.624
KRRLDLETDHQY	-0.843
KVKRRLDLDIDGLQKE	0.813
RVSGLLSWTLSRVLWL	-0.143
GFGFLLFICKLTF	-0.74
RQVRRDLFAF	-0.739

Study 2
Target: Histone acetyltransferase KAT6A, winged helix 1, GST fusion (KAT6A, Homo sapiens, UniProt Q92794, residues 1-85)
Method: protein binding microarray
Molecule type: double-stranded DNA, one strand shown
Matrix: in vitro
Tested at: not given
Notes: 8-mer, flanks averaged, mean of 2 arrays, mostly near background
Baseline: not given
Reading: higher = stronger binding
Target sequence (chain): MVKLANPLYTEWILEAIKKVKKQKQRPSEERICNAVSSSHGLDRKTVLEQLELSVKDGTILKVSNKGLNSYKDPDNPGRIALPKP
Strand	E-score
AAGGCCTA	-0.261
GACCACCC	-0.0807
ACGGGTCT	0.242
AACTAACC	-0.00392
CACTCAGC	-0.136
GGATCAGA	-0.178
CGCGTCCG	0.318
ATCGCACA	-0.0713
AGGTACCG	0.218
CACTAATA	-0.125
ACTAGGTC	-0.0284
GGGTAACA	-0.0389
GCACCCTA	-0.0967
CGTAGCTA	-0.129
ACTACTCG	0.0147
GCTACTCC	0.0199
ACTACTAG	0.0553
GTAGCACA	0.0335
GGTTTCAA	0.0126
CGTGTGAC	0.103
ATTCTCAA	-0.129
GTGTTGTA	-0.13

Study 3
Target: RNA binding protein fox-1 homolog 2, RRM domain, GST-SBP tag (RBFOX2, Homo sapiens, UniProt O43251-10, residues 100-194)
Method: RNA Bind-n-Seq
Molecule type: RNA
Matrix: in vitro
Tested at: 365 nM
Notes: natural RNA segment, single round, ends assumed
Baseline: no-protein control
Reading: higher = stronger binding
Constant ends, left off below: GGGAGUUCUACAGUCCGACGAUC … UGGAAUUCUCGGGUGCCAA
Construct (chain): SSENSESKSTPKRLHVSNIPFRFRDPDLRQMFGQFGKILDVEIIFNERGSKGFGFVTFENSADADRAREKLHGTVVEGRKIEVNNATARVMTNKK
Strand	RBNS enrichment (R)
UCCCCACGCACUUCCCAGGCCAGAAUCCAAACAUCGGGAACCCUGUUUUCUUCUGGGUGUGUCUCACUUAGAAAUCGUGGUUCUUCCCCGAGGGUGCAUGUUGCAGGAGG	1.01
AGCUGAGGCACUUGUCCGUUCGUCUUACCAUCUAACCAAACAAAAGACAAAGAAAUUGUCCUCCAACUCAGCUUUUCCCCCCCUGUUUGGGUGAAAGUGGUUCUAGAACC	0.259
GGGUUUAAUUGCCCUAUUGCUCAAUGGUGUUCUUGCAUGGGGAUUCUCCAGUCCUACAGAUGAAAGCAAAGUAGGAAAUGAUCAUGGGCUUAUUGGGGCUUUUAGCAUCU	12.3
CGCCGCACGCCAGCCCGCUUUGGACUGUGAGCUGAGGCUGUCCCAGGGGAGGAUGGUGGCCACGUACUAAGAUCUUGGCUCUCCAGCCCGUGUUUCCUAAGGACUCCGCA	1.82
UCUUCGAGGUGGAUCACAGAGGCUUCUUCAGAUCAGUGCUUGAGUUUGGGGAAUGCGGCCGCAUUCCCUGAGUCACCAGGAAUGUUAAAGUCAGUGGGAACGUGACUGCC	0.668
AUCUAAAUCCAGGUCAGGCAUGGGAUAUCAGUAUUUAACAUUGGAUGUUUUAUGUUUUAUAUUUAUAAUGUUCAAAAUGCAAGCAUAACAUUUAAUAUUUGUCCACAUGG	8.12
UUGGCAUUCUUAUGUUUGGGUUUAAUAAGAUUAAGAAAAUGAUACUGGGAAUUUUCUUUUUCCUGAAACUUUGAAUCACCCUAGUAAGUCAAAGUACUAAAAAAUGUACU	0.868
CUUUAUUAGAAAGCAUUUUCUAGGUGUGUUUAGUGUACAAAGAGACUUUAUAACCCUUACUGGACAACACACAGAUCCUUGAGCUCACGCUGCAGGAUAGUACAGUUUUA	0.341
UACUUAGAGUUUCUGUUUGAUUCUUUUUUAAUAAACUACUCUUUGAUUUAAUUGUUUGGUGUAAGCAUUUUUACUAGUUCUUUAUUUCUUACACAUCUUUCUUGCUGUUG	0.986
CCAGUAGACUCACACUAUAUGCUUUUUUGGGUUUGCCCGUUCCUUCCCCCACCCCCCCAGUUUUUUCAGAUUUCUUUACCUUUUUUUAAUUAAACUGUUUUGGAAAAAUG	1.19
UUAUCUGAGCCAAACCCCUUAGCAGAAGAAACUGUCCAGCCACACCGAGUGCUCGAAUGGUGUAUUUACAAUGUGAUUCUAGUCUCUUCUUCAGGGAACAUGCCUGCAUU	1.91
UGGGACACCAGUCUUCGGUGUGUGGAAUGUGGUAUUUUCCCGCGUGGAGGUGUGCUUUCUCACAACGGGGUGUGUUUUCCCAUGUGCAGGGUGAGGUUUUUUUUUGCCAC	0.483

Study 4
Target: Sal-like protein 4, full length isoform A (SALL4, Homo sapiens, UniProt Q9UJQ4, residues 1-1053)
Sequence of UniProt Q9UJQ4 (whole entry, looked up): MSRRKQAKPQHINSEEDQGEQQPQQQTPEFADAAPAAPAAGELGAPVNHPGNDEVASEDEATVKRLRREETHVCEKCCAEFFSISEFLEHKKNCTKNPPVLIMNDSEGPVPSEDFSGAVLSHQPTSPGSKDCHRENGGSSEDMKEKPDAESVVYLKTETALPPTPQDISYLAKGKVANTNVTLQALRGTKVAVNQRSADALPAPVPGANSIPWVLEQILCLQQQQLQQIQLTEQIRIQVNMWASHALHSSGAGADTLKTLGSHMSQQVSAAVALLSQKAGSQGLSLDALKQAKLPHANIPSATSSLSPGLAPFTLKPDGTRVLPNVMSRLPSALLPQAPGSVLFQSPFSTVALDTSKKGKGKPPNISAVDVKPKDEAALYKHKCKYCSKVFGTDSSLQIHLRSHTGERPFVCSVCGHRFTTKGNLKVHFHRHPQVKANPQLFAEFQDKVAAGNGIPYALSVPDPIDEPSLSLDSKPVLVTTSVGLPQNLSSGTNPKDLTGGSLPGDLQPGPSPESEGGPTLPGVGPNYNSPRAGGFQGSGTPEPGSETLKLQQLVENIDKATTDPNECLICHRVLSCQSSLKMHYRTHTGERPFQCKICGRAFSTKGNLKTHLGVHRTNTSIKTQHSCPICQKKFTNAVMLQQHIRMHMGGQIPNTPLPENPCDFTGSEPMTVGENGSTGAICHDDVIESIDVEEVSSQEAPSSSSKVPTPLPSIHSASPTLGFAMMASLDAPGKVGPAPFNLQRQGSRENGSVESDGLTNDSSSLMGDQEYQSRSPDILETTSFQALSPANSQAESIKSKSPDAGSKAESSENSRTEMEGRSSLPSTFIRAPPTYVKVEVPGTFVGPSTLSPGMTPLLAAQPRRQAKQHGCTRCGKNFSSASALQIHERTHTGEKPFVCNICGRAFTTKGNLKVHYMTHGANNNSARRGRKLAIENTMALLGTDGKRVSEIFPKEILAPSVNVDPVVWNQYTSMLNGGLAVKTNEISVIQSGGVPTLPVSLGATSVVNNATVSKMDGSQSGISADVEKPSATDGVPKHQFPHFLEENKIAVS
Method: universal PBM
Molecule type: double-stranded DNA, one strand shown
Matrix: in vitro
Tested at: 600 nM
Notes: 8-mer, flanks averaged, mean of replicates
Reading: higher = stronger binding
Strand	E-score
CGCCAGTA	-0.216
TTAATAAA	0.45
ACGCGGCC	-0.241
CTATTGGA	0.201
CTCAGACC	-0.135
AATAGACT	0.234
CCCGTGTC	-0.403
AAATTACC	0.319
GCCTGGAA	-0.125
GACAGAGA	0.0647
CAGCGTTC	-0.157
AACCGCCT	-0.0737
ACCGATCT	-0.208
CATCTCGC	-0.222
ATGGGAAT	0.0832
CTGTAATA	0.315
GTGGGCAA	-0.0975
AGTCGCTG	-0.279
CTGAGAGC	-0.212

Repeated from above (study 2):
Strand	E-score
CACTCAGC	-0.136
ACTAGGTC	-0.0284
AGGTACCG	0.218
ATTCTCAA	-0.129
CACTAATA	-0.125
CGCGTCCG	0.318
CGTAGCTA	-0.129
GTAGCACA	0.0335
GGTTTCAA	0.0126
ACTACTAG	0.0553
